{"data": "Measured values from different studies", "note": "Each numbered part is a random draw from the data of one study; scales do not carry over between parts.", "sequence of UniProt P42684 (whole entry, looked up)": "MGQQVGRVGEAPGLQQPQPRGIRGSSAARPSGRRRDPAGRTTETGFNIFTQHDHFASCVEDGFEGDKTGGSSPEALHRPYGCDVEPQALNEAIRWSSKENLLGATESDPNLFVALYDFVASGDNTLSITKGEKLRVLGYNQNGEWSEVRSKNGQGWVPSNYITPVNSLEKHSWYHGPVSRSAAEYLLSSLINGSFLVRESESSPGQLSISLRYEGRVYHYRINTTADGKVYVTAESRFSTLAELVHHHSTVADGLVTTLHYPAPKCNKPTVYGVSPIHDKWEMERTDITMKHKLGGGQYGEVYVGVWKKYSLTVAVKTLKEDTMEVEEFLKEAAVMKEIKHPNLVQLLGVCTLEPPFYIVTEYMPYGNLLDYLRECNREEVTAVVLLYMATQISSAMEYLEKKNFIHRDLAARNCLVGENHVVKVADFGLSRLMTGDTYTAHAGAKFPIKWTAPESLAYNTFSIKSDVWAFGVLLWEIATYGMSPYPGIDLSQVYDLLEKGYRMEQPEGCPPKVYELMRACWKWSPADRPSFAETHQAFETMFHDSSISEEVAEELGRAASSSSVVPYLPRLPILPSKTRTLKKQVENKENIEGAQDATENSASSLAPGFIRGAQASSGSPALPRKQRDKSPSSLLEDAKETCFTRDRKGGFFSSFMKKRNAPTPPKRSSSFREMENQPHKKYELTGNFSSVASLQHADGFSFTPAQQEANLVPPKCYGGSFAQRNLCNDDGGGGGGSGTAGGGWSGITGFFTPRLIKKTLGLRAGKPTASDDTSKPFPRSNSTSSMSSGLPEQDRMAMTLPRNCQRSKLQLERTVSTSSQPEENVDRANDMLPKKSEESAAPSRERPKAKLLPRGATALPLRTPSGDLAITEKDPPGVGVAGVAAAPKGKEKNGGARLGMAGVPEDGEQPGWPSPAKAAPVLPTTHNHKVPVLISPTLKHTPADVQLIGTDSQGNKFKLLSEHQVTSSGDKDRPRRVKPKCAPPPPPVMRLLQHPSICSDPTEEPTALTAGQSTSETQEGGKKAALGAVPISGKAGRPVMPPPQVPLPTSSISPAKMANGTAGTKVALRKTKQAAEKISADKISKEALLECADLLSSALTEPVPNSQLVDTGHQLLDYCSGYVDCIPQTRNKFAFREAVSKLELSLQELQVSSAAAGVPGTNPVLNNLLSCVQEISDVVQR", "sequence of UniProt O94921 (whole entry, looked up)": "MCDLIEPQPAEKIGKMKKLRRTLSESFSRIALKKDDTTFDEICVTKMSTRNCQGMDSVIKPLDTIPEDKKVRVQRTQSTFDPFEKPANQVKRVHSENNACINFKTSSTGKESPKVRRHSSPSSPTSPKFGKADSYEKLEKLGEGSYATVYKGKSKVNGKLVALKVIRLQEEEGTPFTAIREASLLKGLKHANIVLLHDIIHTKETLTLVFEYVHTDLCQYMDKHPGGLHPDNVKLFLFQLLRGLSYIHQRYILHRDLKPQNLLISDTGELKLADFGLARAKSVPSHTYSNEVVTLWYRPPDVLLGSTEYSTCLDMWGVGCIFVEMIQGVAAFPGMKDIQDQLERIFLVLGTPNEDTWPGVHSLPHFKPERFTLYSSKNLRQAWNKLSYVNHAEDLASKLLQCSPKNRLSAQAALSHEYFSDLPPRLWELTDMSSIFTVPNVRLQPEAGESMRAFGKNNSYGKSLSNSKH", "sequence of UniProt P35968 (whole entry, looked up)": "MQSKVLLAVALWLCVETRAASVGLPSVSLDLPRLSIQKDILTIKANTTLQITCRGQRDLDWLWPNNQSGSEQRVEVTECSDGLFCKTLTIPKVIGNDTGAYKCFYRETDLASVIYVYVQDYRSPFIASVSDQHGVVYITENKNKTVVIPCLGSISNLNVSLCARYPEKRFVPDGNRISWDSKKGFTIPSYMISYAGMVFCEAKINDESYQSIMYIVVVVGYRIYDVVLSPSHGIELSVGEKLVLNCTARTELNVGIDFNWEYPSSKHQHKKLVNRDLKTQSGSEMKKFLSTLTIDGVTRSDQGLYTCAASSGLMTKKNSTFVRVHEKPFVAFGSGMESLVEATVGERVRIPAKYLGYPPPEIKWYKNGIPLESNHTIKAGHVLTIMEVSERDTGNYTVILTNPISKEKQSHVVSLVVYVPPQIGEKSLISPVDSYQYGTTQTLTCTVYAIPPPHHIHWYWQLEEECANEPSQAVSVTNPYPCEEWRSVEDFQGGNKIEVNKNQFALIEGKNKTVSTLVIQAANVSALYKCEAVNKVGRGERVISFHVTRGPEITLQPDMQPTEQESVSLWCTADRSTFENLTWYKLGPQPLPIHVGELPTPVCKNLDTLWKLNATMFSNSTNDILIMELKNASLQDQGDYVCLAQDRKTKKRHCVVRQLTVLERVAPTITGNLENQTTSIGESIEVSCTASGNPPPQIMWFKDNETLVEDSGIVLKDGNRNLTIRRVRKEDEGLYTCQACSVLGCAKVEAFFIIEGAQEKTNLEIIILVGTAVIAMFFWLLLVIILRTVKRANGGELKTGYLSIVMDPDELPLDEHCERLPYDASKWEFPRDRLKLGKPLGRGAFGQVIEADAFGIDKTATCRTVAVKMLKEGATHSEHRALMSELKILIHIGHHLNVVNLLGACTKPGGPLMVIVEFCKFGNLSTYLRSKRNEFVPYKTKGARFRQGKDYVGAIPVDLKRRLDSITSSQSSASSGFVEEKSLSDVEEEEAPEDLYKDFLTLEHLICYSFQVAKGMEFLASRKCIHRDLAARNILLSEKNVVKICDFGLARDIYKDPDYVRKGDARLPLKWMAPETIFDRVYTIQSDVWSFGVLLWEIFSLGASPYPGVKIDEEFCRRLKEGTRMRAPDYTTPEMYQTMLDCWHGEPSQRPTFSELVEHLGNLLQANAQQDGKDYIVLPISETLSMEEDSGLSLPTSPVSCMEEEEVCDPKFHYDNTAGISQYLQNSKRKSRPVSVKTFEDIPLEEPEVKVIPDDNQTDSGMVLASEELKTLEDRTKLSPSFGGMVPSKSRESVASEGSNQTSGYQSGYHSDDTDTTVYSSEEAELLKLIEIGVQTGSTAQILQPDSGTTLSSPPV", "sequence of UniProt P17948 (whole entry, looked up)": "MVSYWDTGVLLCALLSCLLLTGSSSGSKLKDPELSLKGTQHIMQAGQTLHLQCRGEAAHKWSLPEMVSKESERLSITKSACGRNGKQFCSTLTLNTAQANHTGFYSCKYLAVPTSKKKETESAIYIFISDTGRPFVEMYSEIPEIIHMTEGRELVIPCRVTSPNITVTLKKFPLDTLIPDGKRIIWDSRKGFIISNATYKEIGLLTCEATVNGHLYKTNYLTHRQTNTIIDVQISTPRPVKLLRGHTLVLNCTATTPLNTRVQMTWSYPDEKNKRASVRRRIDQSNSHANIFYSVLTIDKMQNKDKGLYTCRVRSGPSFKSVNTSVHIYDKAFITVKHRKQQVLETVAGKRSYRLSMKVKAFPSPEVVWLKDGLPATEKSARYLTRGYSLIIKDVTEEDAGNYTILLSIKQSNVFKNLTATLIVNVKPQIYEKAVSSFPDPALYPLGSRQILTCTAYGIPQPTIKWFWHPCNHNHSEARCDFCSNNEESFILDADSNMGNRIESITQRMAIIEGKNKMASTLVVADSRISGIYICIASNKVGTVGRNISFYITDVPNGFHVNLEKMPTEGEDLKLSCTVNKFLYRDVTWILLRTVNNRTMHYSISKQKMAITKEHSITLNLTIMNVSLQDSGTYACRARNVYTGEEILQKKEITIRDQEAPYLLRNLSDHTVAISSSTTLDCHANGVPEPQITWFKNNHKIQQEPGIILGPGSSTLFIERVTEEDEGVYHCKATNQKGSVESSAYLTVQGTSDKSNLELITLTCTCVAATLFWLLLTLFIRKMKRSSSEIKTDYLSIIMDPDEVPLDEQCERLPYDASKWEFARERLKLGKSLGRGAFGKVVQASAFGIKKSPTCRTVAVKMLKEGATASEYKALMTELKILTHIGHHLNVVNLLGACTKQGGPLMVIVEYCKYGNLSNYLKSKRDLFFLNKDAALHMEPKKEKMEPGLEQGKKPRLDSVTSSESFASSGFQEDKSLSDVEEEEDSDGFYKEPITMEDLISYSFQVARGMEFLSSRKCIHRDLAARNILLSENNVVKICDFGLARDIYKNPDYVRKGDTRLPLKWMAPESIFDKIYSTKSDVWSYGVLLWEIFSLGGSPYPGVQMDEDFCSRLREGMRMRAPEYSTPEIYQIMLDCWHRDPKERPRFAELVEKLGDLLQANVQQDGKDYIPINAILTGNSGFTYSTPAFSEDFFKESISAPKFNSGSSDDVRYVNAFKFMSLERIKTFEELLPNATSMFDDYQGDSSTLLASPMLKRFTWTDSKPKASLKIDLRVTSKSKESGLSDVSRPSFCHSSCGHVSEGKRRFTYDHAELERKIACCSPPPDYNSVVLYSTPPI", "sequence of UniProt P51812 (whole entry, looked up)": "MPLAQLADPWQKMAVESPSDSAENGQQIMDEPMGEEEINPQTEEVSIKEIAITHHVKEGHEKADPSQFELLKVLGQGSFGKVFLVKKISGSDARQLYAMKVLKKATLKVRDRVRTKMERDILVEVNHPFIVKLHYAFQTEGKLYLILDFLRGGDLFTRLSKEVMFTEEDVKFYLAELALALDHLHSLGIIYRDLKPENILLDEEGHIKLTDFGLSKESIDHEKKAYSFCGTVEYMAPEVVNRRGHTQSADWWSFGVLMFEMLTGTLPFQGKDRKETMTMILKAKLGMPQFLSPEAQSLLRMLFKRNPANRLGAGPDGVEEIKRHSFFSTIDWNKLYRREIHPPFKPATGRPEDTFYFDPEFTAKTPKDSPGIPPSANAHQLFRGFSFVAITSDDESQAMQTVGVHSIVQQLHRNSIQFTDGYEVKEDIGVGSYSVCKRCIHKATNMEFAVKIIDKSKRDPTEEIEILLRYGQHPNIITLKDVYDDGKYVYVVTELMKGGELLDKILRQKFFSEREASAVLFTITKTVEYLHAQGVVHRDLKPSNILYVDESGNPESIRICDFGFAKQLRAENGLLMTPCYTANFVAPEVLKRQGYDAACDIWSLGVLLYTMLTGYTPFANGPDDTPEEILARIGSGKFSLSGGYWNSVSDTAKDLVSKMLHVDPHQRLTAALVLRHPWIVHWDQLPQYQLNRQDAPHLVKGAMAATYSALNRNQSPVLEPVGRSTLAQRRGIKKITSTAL"}
{"data": "Sample 1", "SMILES": "CCc1ccccc1C(=O)Nc1n[nH]c2c(C)c(F)c(C3C(C#N)=C(C)N(C)C(C)=C3C#N)cc12", "effect on": "cell-free assay", "method": "competition with immobilised ligand", "tested at": "1 µM"}
{"target": "KIT (Homo sapiens, UniProt P10721, D816H)", "remaining binding": "100%"}
{"target": "MAP2K6 (Homo sapiens, UniProt P52564)", "remaining binding": "98%"}
{"target": "DDR2 (Homo sapiens, UniProt Q16832)", "remaining binding": "100%"}
{"target": "FER (Homo sapiens, UniProt P16591)", "remaining binding": "90%"}
{"target": "EGFR (Homo sapiens, UniProt P00533, del747-752/P753S)", "remaining binding": "79%"}
{"target": "DAPK3 (Homo sapiens, UniProt O43293)", "remaining binding": "71%"}
{"target": "CDK14 (Homo sapiens, UniProt O94921)", "remaining binding": "83%"}
{"target": "GAK (Homo sapiens, UniProt O14976)", "remaining binding": "82%"}
{"target": "ABL2 (Homo sapiens, UniProt P42684)", "remaining binding": "92%"}
{"target": "WNK4 (Homo sapiens, UniProt Q96J92)", "remaining binding": "94%"}
{"target": "Tyrosine-protein kinase ABL1, phosphorylated (ABL1, Homo sapiens, UniProt P00519, Y253F)", "remaining binding": "85%"}
{"target": "LTK (Homo sapiens, UniProt P29376)", "remaining binding": "94%"}
{"target": "KDR (Homo sapiens, UniProt P35968)", "remaining binding": "88%"}
{"data": "Sample 2", "Structure (SMILES)": "FC(F)(F)c1ccc(/C=C/c2nc(COc3ccc(CCCCn4ccnn4)cc3)co2)cc1", "effect on": "enzyme activity", "mode": "inhibitor", "tested at": "0.5 µM", "reference": "control"}
{"target": "TYRO3 (Homo sapiens, UniProt Q06418)", "remaining activity": "103%"}
{"target": "IGF1R (Homo sapiens, UniProt P08069)", "remaining activity": "101%"}
{"target": "EPHA2 (Homo sapiens, UniProt P29317)", "remaining activity": "102%"}
{"target": "JAK1 (Homo sapiens, UniProt P23458)", "remaining activity": "103%"}
{"target": "FLT1 (Homo sapiens, UniProt P17948)", "remaining activity": "95.5%"}
{"target": "RPS6KA3 (Homo sapiens, UniProt P51812)", "remaining activity": "96.8%"}
{"target": "SRPK1 (Homo sapiens, UniProt Q96SB4)", "remaining activity": "98.1%"}
{"data": "Sample 3", "cell line": "A-375", "tested at": "100 µM", "time": "36 h"}
{"SMILES": "CC(C)OC(=O)CCC/C=C\\C[C@@H]1[C@@H](CC[C@@H](O)CCc2ccccc2)[C@H](O)C[C@@H]1O", "viability [%]": 1}
{"SMILES": "Cc1cccc(C)c1NC(=O)C1CCCCN1C (centres unmarked)", "viability [%]": 103}
{"SMILES": "C[C@]12CCC(=O)C=C1CC[C@@H]1[C@@H]2C(=O)C[C@@]2(C)[C@H]1CC[C@]2(O)C(=O)CO", "viability [%]": 112}
{"SMILES": "COC(c1ccccc1)(c1ccccc1)[C@H](Oc1nc(C)cc(C)n1)C(=O)O", "viability [%]": 97}
{"SMILES": "Clc1ccc2nsnc2c1NC1=NCCN1", "viability [%]": 129}
{"data": "Further values, each from its own experiment"}
{"SMILES": "CC(C)n1cnc(-c2ccc(F)cc2)c1-c1ncc(C(=O)Nc2ccc(N3CCN(C)CC3)cc2)[nH]1", "host": "human, idiopathic pulmonary fibrosis", "dose": "30 mg once daily", "notes": "trial, treatment-emergent", "measurement": "patients with ECG high voltage", "value": "0%"}
